Measured values from different studies.
Parts stem from different laboratories: compare values within a part only. Substitutions count along the parent as printed.

Series 1
Target: Hepatocyte nuclear factor 3-alpha (Foxa1, Mus musculus, UniProt P35582, residues 1-468, full length assumed)
Technique: EMSA with sequencing
Form: double-stranded DNA, one strand shown
Medium: in vitro
Tested at: 10 and 20 nM
Setting: whole designed probe, mean of two concentrations, ends assumed
Baseline: negative control set to 0
Direction: higher = stronger binding
Shared flanks, not repeated: GTGAGCGGTGCCCATTGATGGGGAAC … TTTCACTGGGATCGTGGGGAC
Target sequence (chain): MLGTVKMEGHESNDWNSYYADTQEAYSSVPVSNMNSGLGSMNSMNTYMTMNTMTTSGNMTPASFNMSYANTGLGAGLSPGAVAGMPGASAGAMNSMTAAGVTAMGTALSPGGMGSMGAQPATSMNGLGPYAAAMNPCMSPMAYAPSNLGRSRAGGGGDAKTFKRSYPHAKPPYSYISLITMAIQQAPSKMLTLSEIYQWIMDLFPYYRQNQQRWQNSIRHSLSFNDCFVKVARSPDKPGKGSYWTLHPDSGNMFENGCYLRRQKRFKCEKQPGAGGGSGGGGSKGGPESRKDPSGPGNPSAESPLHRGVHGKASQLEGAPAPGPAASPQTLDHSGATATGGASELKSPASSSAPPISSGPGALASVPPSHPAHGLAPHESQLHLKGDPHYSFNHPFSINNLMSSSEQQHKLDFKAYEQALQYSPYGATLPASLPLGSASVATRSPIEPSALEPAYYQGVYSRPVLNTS
`GTAGGGGTAATGAAAAACTTCTTGTGCAAGCGGCCATTAATCAGCAGTGTAACATTGCATAACGTGCTCCAAAGCACGTGTCATGGGATCAGAGTACTCTGCTGCATAATGCAGGCCAGTGTCTGTGCCTCCTGCTGACCTTTTCCAATGCAGAACTCGAACCATGTGATGCATGCTTCTTGCCAAGTCACTT` — result for “normalised bound fraction”: -0.0684 ratio.
`GACCTTCATATCAGCTCTGAAGTGACTAGTAAATTGGATTACCCCACTGGGCATATTTATAGCAGTATTTAATTTTAACTACACAGAATGTACCTGTTTACTCAGACCTGATTTTAATATCAGAGTATCTGTGGAAGGCTTAATACAAATCCTTTTAAGAACTCTATTGACAGATAGAATTTTCCAGCAGAAA`: “normalised bound fraction” 0.253 ratio.
For `GGAAGCTGAACTAGGCAGTGGGTCCCCAGGGATGGTGGGAAGTGACGAGGGCTCAGGGATCTGCCCACTTACTCTTTATTTGCAAACAGTATGTAATCTCACATGCAAGCTGTCACTGCCCTCAGGGCGCTGGCATGCTGCCACCCCAGCCCCTGGATCCTGGTGCTTGGGCGCCTTGGCTTTATAGCATTTG`, “normalised bound fraction” read 0.173 ratio.
For `TCATTCTACCTGAGGAGTTGATATCTGACAGGTCTACATCTGAATTATTGTAAATGTATGTATTTTCATATGAGCATGCAAAGACATTCAAAGTAAACAAAAATAAATGCTAATTAATTAAATTATAATGCAAAAGCAGGGCTTCCTCACCTACAACTTTGTTAAATTTAGATCTCTTTGGAAAACACATTGT`, “normalised bound fraction” read 0.472 ratio.
`AGGTGAATTGGCTGCTTCCATCCTGGCTTGGAACTTCAGACATAGAAGCCTTGGGACTTTCTCAGGACTTTCTCCAGATCTGACTCATGCTCAGCAATCTAGCATCTCTGTGGATCACGTGACCTTAGCCAGGGATGTTGGTGAAACTGTGTGTTGGTCTAGGTACCTAGCCCATGCTAGGTGCTCATCGAAT` — result for “normalised bound fraction”: -0.0578 ratio.
For `CACAGAGTTCAAAGTTGGCTGAGAAAATATACCAGTTGTCCTTGAAACATTCACTGTATTTGATGGCTATCTTTTCTCTAAACATATTGTAATGCAAATATAAAATTGTTTTGTTTTATAAAACAATAGAATACATCAGCTGAAGTTACCCCCAAAAGAAATGAAAGAAACTTCTGGGTGTGCCCTCAAAATT`, “normalised bound fraction” read 0.215 ratio.
For `AATAGCGCTCTGGAGAGAAGGTCCGTTCCATGCCCAGGTAGGGAGGAGGGGGAAAAATGATACTGGCGGGCAGGGAGAGGGGAAGGCAAGAAAGCAATCTGGCGTGGAAGAGCTGTGACGTCAAATCTGACTTCTTTTGTCTGTAGACGGGGGAATCCAGGGTGACTGGGTATAATCTGTATTATCTAGGTCC`, “normalised bound fraction” read -0.0694 ratio.
For `AGTTCAGAATAGTATTTCTACTGAATGTGTATTGTTTTACCCATCCTAAAGTTGAAGAATCACAAGTCAAACCATCATAAGTCCAGGATTATTTGTTTATATATCTTGTAGGGAAGGGAAAAGTGAAAGGAAATAATGTTCTTTCTACCCTTCTACATTATTGGCTGGAGCCCCTGTAACAAAAGACAAATTA`, “normalised bound fraction” read 0.332 ratio.

Series 2
Substance: PhoQ, residues 284 288 289 292 302 303 TASMAF
Technique: Sort-seq
Refers to: YFP reporter
Medium: E. coli
Setting: PhoQ-PhoP variant library
With: 10 µM Mg2+
Baseline: high Mg2+ state
Direction: higher = stronger signaling
For PhoP, residues 12 14 15 18 19 VGHWL (Escherichia coli, UniProt P23836): fold induction read 11.5.
For PhoP, residues 12 14 15 18 19 NFFVT (Escherichia coli, UniProt P23836): fold induction read 14.5.
It gave 10.5 for fold induction (PhoP, residues 12 14 15 18 19 TPWTL (Escherichia coli, UniProt P23836)).
It gave 22.9 for fold induction (PhoP, residues 12 14 15 18 19 LHHYF (Escherichia coli, UniProt P23836)).

Series 3
Target: RING finger protein unkempt homolog, zinc fingers 1-6, GST-SBP tag (UNK, Homo sapiens, UniProt Q9C0B0, residues 30-357)
Technique: RNA Bind-n-Seq
Form: RNA
Medium: in vitro
Tested at: not given
Setting: RNA with constant flanks, human and mouse sites, ends assumed
Baseline: input RNA pool
Direction: higher = stronger binding
Shared flanks, not repeated: GGGAGUUCUACAGUCCGACGAUC … CAACAGAGGAUUGAGCAUCA
Construct (chain): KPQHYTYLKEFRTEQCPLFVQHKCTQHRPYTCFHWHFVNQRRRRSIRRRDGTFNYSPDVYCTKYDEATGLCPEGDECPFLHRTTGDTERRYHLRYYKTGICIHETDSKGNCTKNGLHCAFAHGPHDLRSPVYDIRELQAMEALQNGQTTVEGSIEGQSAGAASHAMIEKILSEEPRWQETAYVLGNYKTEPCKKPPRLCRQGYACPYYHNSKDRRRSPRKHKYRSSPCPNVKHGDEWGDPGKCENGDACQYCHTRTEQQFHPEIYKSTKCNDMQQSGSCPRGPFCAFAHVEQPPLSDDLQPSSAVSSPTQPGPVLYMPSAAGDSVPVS
`UAAGAAAAUAUAGUUGUGAUCUGUGUUACACACCAAUGAUUGUUGCCGCUGAUUUUGUCAAAUCUAUAAAAGCCAGAGACAGCGAAUUUACCACAAAUCAAGGUGAUUGCCCAUUGAUUG` has a bound/input enrichment of 0.172 ratio.
For `CCUGAGCCUGUGGCUCAACCUCAGCCUCAGUCUCAGCCCCAGCUUCAGCUUCAAUCCCAGUCCCAACCAGUACUCCAGUCCCAGCCUCCCUCUCAGCCUGAGGAUUUGUCAUUAGCUGUU`, the bound/input enrichment was 0.387 ratio.
The bound/input enrichment of `AACAUAAAUUGUAUUUCCUGUUUUAAUUCCAGGGGAAGUACUGUUUGGGAAAGCUAUUAUUAGGUAAAUGUUUUACAAAUUACUGUUUCUCACUUUCAGUCAUACCCUAAUGAUCCCAGC` is reported as 0.475 ratio.
`ACAGUUAGAAAGCAAAGUGUUAAAUGGAGAAGAUACUUGUUUUUAUUAAACAUUUUGAGAUUUAGAUAAACUACAUUUUAACUGAAUGUCUAAAGUGAUUAUCUUUUUUCCCCCCAAGUU` gave a bound/input enrichment of 0.628 ratio.
For `AAGUUAUUAUUAUGCAACCACAAGGGCCUCUUCUUUCUCAGGGUGUCUAAGCUGCUGGGUUGCUUUUCGCCCAAAUCAAUGUGGUUUCUUUGGAACAUUUUCAGCAAAGGAACGCAUAUG`, the bound/input enrichment was 0.415 ratio.
With `CGGAGGCGCUACCCUCAGAUCUAUGCCAGCAGCCACAAGCUGCAGCUGGAUGUCACCUCAAUAGUGCUCAGCGCCCACGACUUCUACCAUGCCAUGCAGAACAUCGUGCCUGCUUCCCAA` the bound/input enrichment was 0.063 ratio.
`GACAGUGAAAAUGCUGAACCAGAUCUGGACGACAAUGAGGAUGAGGAGGAGCCUGCCGUAGAAAUUGAACCUGAGCCAGAGCCUCAGCCUGUGACCCCAGCCCCACCACCCGCCAAGAAG` gave a bound/input enrichment of 0.298 ratio.
`GUGCCCUUCUCGCUGCUGCGGAGCCCGAGCUGGGAACCAUUCCGGGACUGGUACCCUGCACACAGCCGCCUCUUCGAUCAAGCUUUCGGGGUGCCCCGGUUGCCCGAUGAGUGGUCGCAG` has a bound/input enrichment of 0.0611 ratio.
`CUGAUCAUUGGAAAAGGAGGUGAAACCAUAAAAAGCAUAAGCCAACAGUCUGGUGCAAGAAUAGAACUGCAGAGAAGCCCUCCACCUAAUGCAGAUCCCAAUAUGAAGUUAUUUACAAUU` has a bound/input enrichment of 0.225 ratio.
`UGUACAACAUGUCUUUGUAAUUUAUAGAAACAAGUCUAGGUGUUGAUACCUUGUGGUCUAAUAGAUGUGGAUACCAUUCAUUUUACUUGAAAUUUUGUUGUCUACUUUAAGUGUAUUUGC` gave a bound/input enrichment of 0.322 ratio.
The bound/input enrichment of `AUGAUGGGCCACGGAUCUGACUACUCACUCAGUGAAGUGCUGUGGGUCUGUGCCAACCUCUUUAGUGAUGUCCAAUUCAAGAUGAGUCAUAAGAGGAUCAUGCUGUUCACCAAUGAAGAC` is reported as 0.289 ratio.

Series 4
Target: ATF2, bZIP domain (human)
Technique: DHFR protein complementation
Medium: yeast
Setting: single substitutions, most at no-binding floor
Baseline: wild-type JUN-FOS pair
Direction: higher = stronger binding
Starting sequence: JUN, bZIP domain (human); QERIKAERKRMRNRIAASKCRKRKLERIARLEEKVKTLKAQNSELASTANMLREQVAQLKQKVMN; partner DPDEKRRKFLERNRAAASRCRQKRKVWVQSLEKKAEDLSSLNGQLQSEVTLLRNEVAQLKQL
With `E33Q` the binding fitness was -1.47 natural log.
The binding fitness of `E33T` is reported as -1.44 natural log.
For `A49N`, the binding fitness was -1.45 natural log.
For `S43W`, the binding fitness was -1.47 natural log.
The binding fitness of `V35H` is reported as -1.52 natural log.
The binding fitness of `S43Q` is reported as -1.26 natural log.
The binding fitness of `K39L` is reported as -1.32 natural log.
With `E54N` the binding fitness was -1.33 natural log.
For `M51G`, the binding fitness was -1.42 natural log.
The binding fitness of `K36C` is reported as -1.32 natural log.
With `A49K` the binding fitness was -1.47 natural log.
With `L38M` the binding fitness was -1.37 natural log.
The binding fitness of `A46D` is reported as -1.47 natural log.
The binding fitness of `T48Y` is reported as -1.53 natural log.
For `L38C`, the binding fitness was -1.5 natural log.

Repeated from above (series 1):
`GTAGGGGTAATGAAAAACTTCTTGTGCAAGCGGCCATTAATCAGCAGTGTAACATTGCATAACGTGCTCCAAAGCACGTGTCATGGGATCAGAGTACTCTGCTGCATAATGCAGGCCAGTGTCTGTGCCTCCTGCTGACCTTTTCCAATGCAGAACTCGAACCATGTGATGCATGCTTCTTGCCAAGTCACTT` — result for “normalised bound fraction”: -0.0684 ratio.
For `TCATTCTACCTGAGGAGTTGATATCTGACAGGTCTACATCTGAATTATTGTAAATGTATGTATTTTCATATGAGCATGCAAAGACATTCAAAGTAAACAAAAATAAATGCTAATTAATTAAATTATAATGCAAAAGCAGGGCTTCCTCACCTACAACTTTGTTAAATTTAGATCTCTTTGGAAAACACATTGT`, “normalised bound fraction” read 0.472 ratio.
For `GGAAGCTGAACTAGGCAGTGGGTCCCCAGGGATGGTGGGAAGTGACGAGGGCTCAGGGATCTGCCCACTTACTCTTTATTTGCAAACAGTATGTAATCTCACATGCAAGCTGTCACTGCCCTCAGGGCGCTGGCATGCTGCCACCCCAGCCCCTGGATCCTGGTGCTTGGGCGCCTTGGCTTTATAGCATTTG`, “normalised bound fraction” read 0.173 ratio.
For `AGTTCAGAATAGTATTTCTACTGAATGTGTATTGTTTTACCCATCCTAAAGTTGAAGAATCACAAGTCAAACCATCATAAGTCCAGGATTATTTGTTTATATATCTTGTAGGGAAGGGAAAAGTGAAAGGAAATAATGTTCTTTCTACCCTTCTACATTATTGGCTGGAGCCCCTGTAACAAAAGACAAATTA`, “normalised bound fraction” read 0.332 ratio.
